Results from different studies.
Organism: Acinetobacter baumannii

| SMILES | assay | test system | setting | how to read | MIC |
| --- | --- | --- | --- | --- | --- |
| CC[C@H](C)[C@H](NC(=O)CNC(=O)[C@H](CC(=O)O)NC(=O)[C@H](CCCNC(=N)N)NC(=O)[C@@H](NC(=O)[C@H](CC(N)=O)NC(=O)[C@H](CCCNC(=N)N)NC(=O)CNC(=O)[C@@H](NC(=O)[C@H](CCCCN)NC(=O)[C@H](CCC(=O)O)NC(=O)[C@@H](NC(=O)[C@H](CCCCN)NC(=O)[C@H](CCCCN)NC(=O)[C@H](Cc1ccccc1)NC(=O)[C@@H](NC(=O)[C@H](CCCCN)NC(=O)[C@H](Cc1c[nH]c2ccccc12)NC(=O)[C@@H](N)CCCNC(=N)N)[C@@H](C)CC)[C@@H](C)CC)C(C)C)C(C)C)C(=O)N[C@H](C(=O)N[C@@H](CCCCN)C(=O)N[C@@H](C)C(=O)NCC(=O)N1CCC[C@H]1C(=O)N[C@@H](C)C(=O)N[C@H](C(=O)N[C@@H](C)C(=O)N[C@H](C(=O)N[C@H](C(=O)NCC(=O)N[C@@H](CCC(N)=O)C(=O)N[C@@H](C)C(=O)N[C@@H](C)C(=O)N[C@H](C(=O)N[C@H](C(=O)N[C@H](C(=O)N[C@@H](CCCCN)C(N)=O)C(C)C)C(C)C)[C@@H](C)O)C(C)C)C(C)C)C(C)C)[C@@H](C)CC | – | CCARM 12006 carbapenem-resistant | – | – | 1 µM |
| N=C(N)NCCC[C@H](NC(=O)CCCCCNC(=O)[C@H](CCCNC(=N)N)NC(=O)[C@H](CCCNC(=N)N)NC(=O)CCCCCNC(=O)[C@H](CCCNC(=N)N)NC(=O)[C@H](CCCNC(=N)N)NC(=O)CCCCCNC(=O)[C@H](CCCNC(=N)N)NC(=O)[C@H](CCCNC(=N)N)NC(=O)CCCCCNC(=O)[C@@H](N)CCCNC(=N)N)C(=O)NCCCCCC(=O)NCCC(=O)O | broth microdilution | ATCC 19606, Mueller-Hinton broth | – | – | 192 µM |
| CC[C@H](C)[C@H](NC(=O)[C@H](CC(C)C)NC(=O)[C@H](CCCCN)NC(=O)[C@@H](NC(=O)[C@H](C)NC(=O)[C@H](CCC(=O)O)NC(=O)[C@H](Cc1c[nH]cn1)NC(=O)[C@@H](NC(=O)[C@H](CCCCN)NC(=O)[C@H](CCC(N)=O)NC(=O)[C@H](Cc1ccccc1)NC(=O)[C@@H](NC(=O)[C@H](CCCCN)NC(=O)[C@H](CCCCN)NC(=O)[C@H](CC(C)C)NC(=O)[C@H](C)N)C(C)C)[C@@H](C)CC)[C@@H](C)CC)C(N)=O | CLSI broth microdilution | ATCC 19606 | 18 h, 37 °C | – | 4 µM |
| N=C(N)NCCC[C@H](NC(=O)[C@@H](N)CCCNC(=N)N)C(=O)N[C@@H](Cc1c[nH]c2ccccc12)C(=O)N[C@@H](Cc1c[nH]c2ccccc12)C(=O)N[C@@H](CCC(N)=O)C(=O)N[C@@H](Cc1ccccc1)C(=O)N[C@@H](CCC(N)=O)C(=O)N[C@@H](Cc1ccccc1)C(=O)N[C@@H](CCCCN)C(N)=O | broth microdilution, optical density | – | – | – | 40 µM |
| CC[C@H](C)[C@H](NC(=O)[C@H](CCCCN)NC(=O)[C@H](Cc1c[nH]c2ccccc12)NC(=O)[C@H](Cc1c[nH]c2ccccc12)NC(=O)[C@H](CCCCN)NC(=O)[C@H](CCCCN)NC(=O)[C@H](CCCCN)NC(=O)[C@H](Cc1c[nH]c2ccccc12)NC(=O)[C@H](CCCCN)NC(=O)[C@H](CCCCN)NC(=O)[C@H](Cc1c[nH]c2ccccc12)NC(=O)[C@H](CCCCN)NC(=O)[C@H](CCCCN)NC(=O)[C@@H](NC(=O)[C@@H](NC(=O)[C@H](CCCCN)NC(=O)[C@@H](N)CCCNC(=N)N)[C@@H](C)CC)[C@@H](C)CC)C(=O)N[C@@H](Cc1c[nH]c2ccccc12)C(=O)N[C@@H](Cc1c[nH]c2ccccc12)C(=O)N[C@@H](CCCCN)C(=O)NCCOCCOCC(N)=O | broth microdilution | 18 | – | – | 1.9 µg/mL |
| CC[C@H](C)[C@H](NC(=O)[C@H](CC(C)C)NC(=O)[C@H](CCCNC(=N)N)NC(=O)[C@@H](N)CCCNC(=N)N)C(=O)N[C@@H](CC(C)C)C(=O)N[C@H](C(=O)N[C@@H](CCCCN)C(=O)N[C@H](C(=O)NCC(=O)N1CCC[C@H]1C(=O)N[C@H](C(=O)N[C@H](C(=O)N[C@@H](Cc1ccc(O)cc1)C(=O)N[C@@H](CCCCN)C(=O)N[C@@H](Cc1ccc(O)cc1)C(=O)N[C@@H](Cc1ccccc1)C(=O)N[C@@H](CCCCN)C(=O)N[C@@H](CCCCN)C(=O)N[C@@H](CCC(N)=O)C(=O)N[C@@H](CC(C)C)C(=O)N[C@@H](CCCCN)C(=O)N[C@@H](CCCCN)C(=O)N[C@@H](CC(C)C)C(N)=O)[C@@H](C)CC)[C@@H](C)CC)[C@@H](C)O)[C@@H](C)O | – | ATCC BAA1605, Mueller-Hinton broth | 24 h | – | 2 µM |
| CC[C@H](C)[C@H](NC(=O)[C@H](CCCCN)NC(=O)[C@H](CCCNC(=N)N)NC(=O)[C@H](CCCNC(=N)N)NC(=O)[C@H](CC(C)C)NC(=O)[C@H](CCCCN)NC(=O)[C@H](CCCCN)NC(=O)[C@H](Cc1ccccc1)NC(=O)[C@H](CC(C)C)NC(=O)CNC(=O)[C@H](CCCNC(=N)N)NC(=O)[C@@H](N)CCCNC(=N)N)C(=O)N[C@@H](CCCCN)C(=O)N[C@@H](CCCCN)C(=O)NCC(=O)N[C@@H](Cc1ccccc1)C(=O)N[C@@H](CCCCN)C(=O)N[C@@H](CCCCN)C(=O)N[C@H](C(=O)N[C@@H](Cc1ccccc1)C(=O)N[C@@H](CCCCN)C(=O)N[C@@H](CCCNC(=N)N)C(=O)N[C@@H](CC(C)C)C(=O)N1CCC[C@H]1C(=O)N1CCC[C@H]1C(=O)N[C@H](C(=O)NCC(=O)N[C@H](C(=O)NCC(=O)N[C@H](C(=O)N[C@@H](CO)C(=O)O)C(C)C)C(C)C)C(C)C)[C@@H](C)CC | – | ATCC 19606 | highest concentration 50 µM | – | 10.3 µM |
| CC[C@H](C)[C@H](NC(=O)CNC(=O)[C@H](CC(=O)O)NC(=O)[C@H](CCCNC(=N)N)NC(=O)[C@@H](NC(=O)[C@H](CC(N)=O)NC(=O)[C@H](CCCNC(=N)N)NC(=O)CNC(=O)[C@@H](NC(=O)[C@H](CCCCN)NC(=O)[C@H](CCC(=O)O)NC(=O)[C@@H](NC(=O)[C@H](CCCCN)NC(=O)[C@H](CCC(=O)O)NC(=O)[C@H](Cc1ccccc1)NC(=O)[C@@H](NC(=O)[C@H](CCCCN)NC(=O)[C@H](Cc1c[nH]c2ccccc12)NC(=O)[C@@H](N)CCCNC(=N)N)[C@@H](C)CC)[C@@H](C)CC)C(C)C)C(C)C)C(=O)N[C@H](C(=O)N[C@@H](CCCCN)C(=O)N[C@@H](C)C(=O)NCC(=O)N1CCC[C@H]1C(=O)N[C@@H](C)C(=O)N[C@H](C(=O)N[C@@H](C)C(=O)N[C@H](C(=O)N[C@H](C(=O)NCC(=O)N[C@@H](CCC(N)=O)C(=O)N[C@@H](C)C(=O)N[C@@H](C)C(=O)N[C@H](C(=O)N[C@H](C(=O)N[C@H](C(=O)N[C@@H](CCCCN)C(N)=O)C(C)C)C(C)C)[C@@H](C)O)C(C)C)C(C)C)C(C)C)[C@@H](C)CC | – | KCCM 40203, Mueller-Hinton broth | 16 h, 37 °C | growth inhibition over 99% | > 64 µM |
| CCCCCC(=O)N[C@@H](CCCNC(=N)N)C(=O)N[C@@H](CCCNC(=N)N)C(=O)N[C@@H](CCCNC(=N)N)C(=O)N[C@@H](CCCNC(=N)N)C(=O)N[C@H](C(=O)N[C@@H](CC(C)C)C(=O)N[C@H](C(=O)N[C@@H](CCCCN)C(=O)N[C@@H](CCCCN)C(=O)N[C@H](C(=O)N[C@@H](CC(C)C)C(=O)N[C@@H](CCCCN)C(=O)N[C@@H](CC(C)C)C(=O)N[C@@H](CCCCN)C(=O)N[C@@H](CO)C(=O)N[C@@H](CO)C(=O)N[C@@H](C)C(=O)N[C@@H](Cc1ccc(O)cc1)C(N)=O)C(C)C)[C@@H](C)CC)[C@@H](C)CC | broth microdilution | ATCC 17978 | highest value reported | – | 64 µM |
| CC[C@H](C)[C@H](N)C(=O)N[C@@H](CCCNC(=N)N)C(=O)N[C@H](C(=O)N[C@@H](Cc1c[nH]c2ccccc12)C(=O)N[C@@H](Cc1c[nH]c2ccccc12)C(=O)N[C@@H](CCCCN)C(=O)N[C@H](C(=O)N[C@H](C(=O)N[C@@H](CCCNC(=N)N)C(=O)N[C@@H](CCCCN)C(=O)N[C@@H](Cc1c[nH]c2ccccc12)C(=O)N[C@@H](CCCCN)C(=O)N[C@@H](C)C(=O)N[C@H](C(=O)N[C@@H](Cc1c[nH]c2ccccc12)C(=O)N[C@@H](Cc1c[nH]cn1)C(N)=O)[C@@H](C)CC)C(C)C)[C@@H](C)CC)C(C)C | broth dilution | ATCC 19606 | – | – | 6.3 µM |

A few entries again:
| SMILES | assay | test system | setting | how to read | MIC |
| --- | --- | --- | --- | --- | --- |
| N=C(N)NCCC[C@H](NC(=O)CCCCCNC(=O)[C@H](CCCNC(=N)N)NC(=O)[C@H](CCCNC(=N)N)NC(=O)CCCCCNC(=O)[C@H](CCCNC(=N)N)NC(=O)[C@H](CCCNC(=N)N)NC(=O)CCCCCNC(=O)[C@H](CCCNC(=N)N)NC(=O)[C@H](CCCNC(=N)N)NC(=O)CCCCCNC(=O)[C@@H](N)CCCNC(=N)N)C(=O)NCCCCCC(=O)NCCC(=O)O | broth microdilution | ATCC 19606, Mueller-Hinton broth | – | – | 192 µM |
| CC[C@H](C)[C@H](NC(=O)[C@H](CC(C)C)NC(=O)[C@H](CCCCN)NC(=O)[C@@H](NC(=O)[C@H](C)NC(=O)[C@H](CCC(=O)O)NC(=O)[C@H](Cc1c[nH]cn1)NC(=O)[C@@H](NC(=O)[C@H](CCCCN)NC(=O)[C@H](CCC(N)=O)NC(=O)[C@H](Cc1ccccc1)NC(=O)[C@@H](NC(=O)[C@H](CCCCN)NC(=O)[C@H](CCCCN)NC(=O)[C@H](CC(C)C)NC(=O)[C@H](C)N)C(C)C)[C@@H](C)CC)[C@@H](C)CC)C(N)=O | CLSI broth microdilution | ATCC 19606 | 18 h, 37 °C | – | 4 µM |
